Measured values pooled from the literature.
Parts stem from different laboratories: compare values within a part only.

Sample 1 — technique: RNA Bind-n-Seq; form: RNA; matrix: in vitro; tested at: 365 nM; reference: no-protein control; direction: higher = stronger binding
Target: RNA binding protein fox-1 homolog 2, RRM domain, GST-SBP tag (RBFOX2, Homo sapiens, UniProt O43251-10, residues 100-194)
Notes: natural RNA segment, single round, ends assumed
All sequences stand within: GGGAGUUCUACAGUCCGACGAUC … UGGAAUUCUCGGGUGCCAA
Residues (chain): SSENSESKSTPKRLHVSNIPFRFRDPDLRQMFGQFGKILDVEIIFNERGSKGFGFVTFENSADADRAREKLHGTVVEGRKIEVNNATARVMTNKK
`CAUACCAUCCACAUCAGAAUCCCUUGUAGGAUUUUCUAAAAUUACAGAUUGUUGAGCCUACCAUAGGUCAAAAGGACUGGAAUUUUCCUUCUUAACAAGUAUAGUCAUGG`: “RBNS enrichment (R)” 0.636.
Under “RBNS enrichment (R)”, `AGCUUCUUAAUUCCAAUACUAAUUUGCUUUGCUGACCAAAUACCUGCCUGGUACCAGAAGACAGGGAGGCAGAGACUGGGAGCCGUGAUGUGCCCUUGGGCUGAGCCCUA` is recorded as 0.42.
`UGAGCCCCUUACCCAUAGGGUUGGGGGUGGGAAGAGAAGCAUAUUUUUUUGCCAUUCCGGAAGCAAUCCAUUUUUAUUCACUUGUGUGUCAUGUAAUGGUCUUUGGCAGG` — result for “RBNS enrichment (R)”: 0.297.
`AUAGACAAUCCAAAGUCUCCCCUUCUGUUGCCGUCAUCUUGUUUAAUCAACCAUUUUUCAAGGCACUCGAUCAGUGUUGCAGCAUAACAGAAAGUACAGCUACUGUGCCU` — result for “RBNS enrichment (R)”: 0.818.
Under “RBNS enrichment (R)”, `UCAGAAGGCUGUCUGGCACCCAGUGUCCUAGCCAGGCCAAGUAUAUGAGAAAGGUAAGUCCAUUUUCCCCUUCAGGUCCUCAGUGGAUUACUUAACCACUGCUGUCCCUC` is recorded as 0.257.
`UUUAAGUUUUGUAACACUGUCCUACUUUAUUUAUUAGAAUCUAAGGCUGUUACAAUCAAGUCGUUGCAGGGUUUGGAUCAGCUGUAAGUUAGGUAUGCCUACCAAACAUC` — result for “RBNS enrichment (R)”: 0.342.
For `UUGGGUUAUUUUUUUACACAGCUGGUAAAGAGGAUUAUUCUGAAGAGUCAAAUGGACAGUAGAAGCAUGUGAUAGCCAGAAGGGCUGAGGCUGAUCUGGGUCCCCCAAAG`, “RBNS enrichment (R)” read 7.12.
For `ACCUCUUGCUGCCAGCACCCAACAGCCUUGCCGUGGGGACCUUGGAAACCUGGCUUUGCUCUGGACAAAGGGUUCCAGAGAGAAGCUAGAAGUCCCCCUUGAAUGACCCC`, “RBNS enrichment (R)” read 1.41.
Under “RBNS enrichment (R)”, `ACCUGCCCCCAGAGCUGAGGCCAUCUGCAAGCCCCUGCCCAUGGCCCAAUGGGGAGCCUCCAGCCACAAGUUCCCUGUCCUUAUCAGCCACUGGGUGGUUCCCACUGCAU` is recorded as 0.463.
`UGUCCGUCUUUCUGCUGCACACCUGGACCAAGCUUGCAGGCUGCCAGACUCACUCAACCUCCAGAGAGAGGAGCCAAGCCUAUGGGAAGUGGGGAGGGACUGCCUGAGGC`: “RBNS enrichment (R)” 0.472.
Under “RBNS enrichment (R)”, `CUCCCUAAUUCUUUUGUUUCUUUUGCAGAAUUAAGAAUAUUUCCUUGUUUAUUAGAUACAUCACUGCUUUAUGAAGCAAGGAAGAUAUACAUGAAAAAAUUUAAAUACAU` is recorded as 1.3.
For `UGAUUUUGUUUUAGCAUUAAACUGUUCAAGUUUUUGUACGUAGAUAUCUAGAUACUGCAGUCAGGUUUGGAAGCUGCCGUACACUCACUGUCUAAAACCCUUGAGGGGCU`, “RBNS enrichment (R)” read 1.08.

Sample 2 — technique: protein binding microarray; form: double-stranded DNA, one strand shown; matrix: in vitro; tested at: not given; reference: not given; direction: higher = stronger binding
Target: Histone acetyltransferase KAT6A, both winged helices, GST fusion (KAT6A, Homo sapiens, UniProt Q92794, residues 1-181)
Notes: 8-mer, flanks averaged, mean of 2 arrays, mostly near background
Residues (chain): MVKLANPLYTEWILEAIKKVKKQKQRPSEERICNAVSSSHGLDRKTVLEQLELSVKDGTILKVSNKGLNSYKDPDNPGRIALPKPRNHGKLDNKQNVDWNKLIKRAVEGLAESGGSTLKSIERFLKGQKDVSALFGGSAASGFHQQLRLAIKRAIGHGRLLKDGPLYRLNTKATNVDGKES
`TCACAAAA` has an E-score of -0.0418.
The E-score of `AGAGATTG` is reported as -0.0424.
For `AGGAGGGG`, the E-score was -0.238.
The E-score of `ACATACGC` is reported as 0.209.
The E-score of `ACGATTTC` is reported as -0.0254.
With `GCACCTGA` the E-score was -0.16.
With `ACATCGCT` the E-score was 0.0683.
`CACGCCGG` gave an E-score of 0.258.
`AAATTAAA` has an E-score of -0.036.
For `AAACAGAT`, the E-score was 0.0506.
The E-score of `GACGTCGA` is reported as 0.0859.
`ACAACGTA` gave an E-score of -0.19.
With `ATCAGCTC` the E-score was -0.0909.
With `CTTTACGC` the E-score was 0.223.
The E-score of `AGCTCACA` is reported as -0.14.
`CGTGTCCC` gave an E-score of 0.122.
`CGCAGTCC` gave an E-score of 0.143.
`AATCCCTC` gave an E-score of -0.0793.
The E-score of `CCACAGGG` is reported as -0.213.
`AGACATAG` has an E-score of -0.0611.
For `TTAAGAAA`, the E-score was -0.0587.
The E-score of `AGAGCCCT` is reported as -0.211.
The E-score of `GGGAGCCC` is reported as -0.0249.
With `AGTCGGCA` the E-score was 0.116.
`CTGTTATA` has an E-score of -0.067.

Sample 3 — technique: universal PBM; form: double-stranded DNA, one strand shown; matrix: in vitro; tested at: not given; direction: higher = stronger binding
Target: Sal-like protein 4, full length isoform B (SALL4, Homo sapiens, UniProt Q9UJQ4-2, residues 1-616)
Notes: 8-mer, flanks averaged, mean of replicates
Construct (chain): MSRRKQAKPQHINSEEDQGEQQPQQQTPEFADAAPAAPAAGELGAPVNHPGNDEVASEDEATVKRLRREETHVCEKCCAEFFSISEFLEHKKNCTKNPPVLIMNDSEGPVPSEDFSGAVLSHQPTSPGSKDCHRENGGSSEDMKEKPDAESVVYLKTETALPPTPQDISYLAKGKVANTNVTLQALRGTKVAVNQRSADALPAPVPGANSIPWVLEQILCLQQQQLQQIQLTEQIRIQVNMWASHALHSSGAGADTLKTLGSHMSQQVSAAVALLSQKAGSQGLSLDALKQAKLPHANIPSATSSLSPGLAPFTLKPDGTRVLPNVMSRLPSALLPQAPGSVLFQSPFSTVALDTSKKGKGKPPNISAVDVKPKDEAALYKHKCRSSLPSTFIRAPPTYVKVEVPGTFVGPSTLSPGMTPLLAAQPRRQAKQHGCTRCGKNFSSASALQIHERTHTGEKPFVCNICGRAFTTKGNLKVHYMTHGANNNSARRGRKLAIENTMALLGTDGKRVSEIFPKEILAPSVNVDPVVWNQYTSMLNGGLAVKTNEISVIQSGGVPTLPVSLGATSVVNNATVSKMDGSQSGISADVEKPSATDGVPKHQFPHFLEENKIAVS
With `ACGTCTGG` the E-score was 0.0656.
`AGTGATTC` gave an E-score of 0.0391.
With `CAAACTTC` the E-score was -0.0416.
`GGATCCAC` gave an E-score of -0.251.
`CGGCCGGA` gave an E-score of -0.223.
For `GTTACAAA`, the E-score was 0.169.
`ATTGGCCC` gave an E-score of -0.111.
For `TACCTTAA`, the E-score was 0.103.
`ACTCCAGG` has an E-score of -0.197.
The E-score of `GCTCTAGA` is reported as -0.181.
The E-score of `ACTAAGTG` is reported as 0.0906.
`AGGATCTG` gave an E-score of -0.225.
For `CATAGCTC`, the E-score was -0.175.
The E-score of `AGCACCCG` is reported as -0.349.
The E-score of `AACGCGTA` is reported as 0.132.
`GAGTCAGC` has an E-score of -0.218.
With `CTCTGTCA` the E-score was -0.0314.
`AGACCTGG` has an E-score of -0.226.
For `GGTCTCAC`, the E-score was -0.0416.
`CCTATACG` gave an E-score of -0.0202.
With `ACGTTTAA` the E-score was 0.255.
The E-score of `GTAGCGAA` is reported as 0.0488.
With `CTGTTCCC` the E-score was -0.172.
`CGACGCTA` has an E-score of -0.103.
With `CTGGACGA` the E-score was -0.133.

Sample 4 — target: UBE2R2 UBC core domain (UniProt Q712K3); technique: yeast two-hybrid; matrix: yeast; notes: mostly zero background; reference: not given; direction: higher = stronger interaction
B1: TRIM38 RING domain (UniProt O00635); chain STKKMMEEATCSICLSLMTNPVSINCGHSYCHLCITDFFKNPSQKQLRQETFCCPQCRAPFHMDSLRP
B2: PHF7 RING domain (UniProt Q9BWX1); chain IQHGHVGEESCILCCEDLSQQSVENIQSPCCSQAIYHRKCIQKYAHTSAKHFFKCPQCNNRKEFPQEML
B3: TRIM3 RING domain (UniProt O75382); chain VQPMDKQFLVCSICLDRYQCPKVLPCLHTFCERCLQNYIPAQSLTLSCPVCRQTSILPEQGV
B4: RNF149 RING domain (UniProt Q8NC42); chain EKGIDVDAENCAVCIENFKVKDIIRILPCKHIFHRICIDPWLLDHRTCPMCKLDVIKALGYW
B5: TRIM55 RING domain (UniProt Q9BYV6); chain TMDNLEKQLICPICLEMFTKPVVILPCQHNLCRKCASDIFQASNPYLPTRGGTTMASGGRFRCPSCRHEVVLDRHG
B6: TRIM10 RING domain (UniProt Q9UDY6); chain SVTSLADEVNCPICQGTLREPVTIDCGHNFCRACLTRYCEIPGPDLEESPTCPLCKEPFRPGSFRP
B7: TRIM52 RING domain (UniProt Q96A61); chain PMQTLQEEAVCAICLDYFKDPVSISCGHNFCRGCVTQLWSKEDEEDQNEEEDEWEEEEDEEAV
B8: TRIM15 RING domain (UniProt Q9C019); chain SLKVVHELPACTLCAGPLEDAVTIPCGHTFCRLCLPALSQMGAQSSGKILLCPLCQEEEQAETPMA
B9: MSL2 RING domain (UniProt Q9HCI7); chain LLPYFRQSLSCCVCGHLLQDPIAPTNSTCQHYVCKTCKGKKMMMKPSCSWCKDYEQFEENKQ
B10: RNF43 RING domain (UniProt Q68DV7); chain SGSSCSSAPVCAICLEEFSEGQELRVISCLHEFHRNCVDPWLHQHRTCPLCMFNITEGDSFS
B11: PEX2 RING domain (UniProt P28328); chain DNTLATSGKECALCGEWPTMPHTIGCEHIFCYFCAKSSFLFDVYFTCPKCGTEVHSLQPLK
Target sequence (chain): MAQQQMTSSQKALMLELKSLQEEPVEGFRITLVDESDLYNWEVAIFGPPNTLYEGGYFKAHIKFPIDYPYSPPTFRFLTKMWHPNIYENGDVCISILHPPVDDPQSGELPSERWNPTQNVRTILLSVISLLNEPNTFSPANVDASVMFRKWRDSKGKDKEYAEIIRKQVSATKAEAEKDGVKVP
`B1 (TRIM38 RING domain)`: “lacZ reporter activity” 0.
`B2 (PHF7 RING domain)`: “lacZ reporter activity” 0.
Under “lacZ reporter activity”, `B3 (TRIM3 RING domain)` is recorded as 0.
Under “lacZ reporter activity”, `B4 (RNF149 RING domain)` is recorded as 0.
`B5 (TRIM55 RING domain)`: “lacZ reporter activity” 0.
`B6 (TRIM10 RING domain)` — result for “lacZ reporter activity”: 0.
For `B7 (TRIM52 RING domain)`, “lacZ reporter activity” read 0.
`LKQVSIRENCCSLCCDEVADTQLKPCGHSDLCMDCALQLETCPLCRKEIVSRIRQI (RSPRY1 RING domain (UniProt Q96DX4))`: “lacZ reporter activity” 0.
`B8 (TRIM15 RING domain)` — result for “lacZ reporter activity”: 0.
Under “lacZ reporter activity”, `B9 (MSL2 RING domain)` is recorded as 0.
Under “lacZ reporter activity”, `B10 (RNF43 RING domain)` is recorded as 0.
Under “lacZ reporter activity”, `B11 (PEX2 RING domain)` is recorded as 0.
